Results gathered from unrelated publications.
Each numbered part is a random draw from the data of one study; scales do not carry over between parts. Substitutions count along the parent as printed.
UniProt P30291, sequence (whole entry, looked up): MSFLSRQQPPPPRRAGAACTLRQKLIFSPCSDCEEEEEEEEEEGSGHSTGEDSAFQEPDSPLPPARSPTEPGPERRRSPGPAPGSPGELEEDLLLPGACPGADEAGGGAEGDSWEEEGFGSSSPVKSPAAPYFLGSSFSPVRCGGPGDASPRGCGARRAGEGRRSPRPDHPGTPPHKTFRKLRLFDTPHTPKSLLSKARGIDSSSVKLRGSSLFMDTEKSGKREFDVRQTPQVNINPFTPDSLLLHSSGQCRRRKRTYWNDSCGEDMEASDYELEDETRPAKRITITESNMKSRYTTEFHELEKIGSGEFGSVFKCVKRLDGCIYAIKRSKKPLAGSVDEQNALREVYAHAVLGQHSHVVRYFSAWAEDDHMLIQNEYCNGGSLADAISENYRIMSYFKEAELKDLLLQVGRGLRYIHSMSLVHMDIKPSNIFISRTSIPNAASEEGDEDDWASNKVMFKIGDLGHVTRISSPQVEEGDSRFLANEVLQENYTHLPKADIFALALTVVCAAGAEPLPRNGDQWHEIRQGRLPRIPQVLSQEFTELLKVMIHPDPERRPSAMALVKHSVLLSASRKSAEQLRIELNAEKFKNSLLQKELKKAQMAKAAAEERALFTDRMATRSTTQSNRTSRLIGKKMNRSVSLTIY
UniProt P32298, sequence (whole entry, looked up): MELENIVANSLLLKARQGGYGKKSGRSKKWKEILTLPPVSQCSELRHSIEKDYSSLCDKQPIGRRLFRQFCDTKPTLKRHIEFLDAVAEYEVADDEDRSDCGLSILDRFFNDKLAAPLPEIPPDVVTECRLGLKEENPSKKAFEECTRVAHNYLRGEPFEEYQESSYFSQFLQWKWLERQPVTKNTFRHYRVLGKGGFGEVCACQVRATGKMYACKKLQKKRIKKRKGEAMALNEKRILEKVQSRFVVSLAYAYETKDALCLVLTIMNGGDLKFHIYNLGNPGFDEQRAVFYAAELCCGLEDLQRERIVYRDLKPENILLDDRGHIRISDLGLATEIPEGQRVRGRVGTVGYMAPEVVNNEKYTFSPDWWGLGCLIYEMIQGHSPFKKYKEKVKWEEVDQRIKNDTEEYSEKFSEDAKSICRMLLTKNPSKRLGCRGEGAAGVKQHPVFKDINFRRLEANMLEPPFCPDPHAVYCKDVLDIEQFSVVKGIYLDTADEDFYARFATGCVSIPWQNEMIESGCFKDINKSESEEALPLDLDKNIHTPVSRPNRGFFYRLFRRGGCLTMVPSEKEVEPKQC
UniProt P49761, sequence (whole entry, looked up): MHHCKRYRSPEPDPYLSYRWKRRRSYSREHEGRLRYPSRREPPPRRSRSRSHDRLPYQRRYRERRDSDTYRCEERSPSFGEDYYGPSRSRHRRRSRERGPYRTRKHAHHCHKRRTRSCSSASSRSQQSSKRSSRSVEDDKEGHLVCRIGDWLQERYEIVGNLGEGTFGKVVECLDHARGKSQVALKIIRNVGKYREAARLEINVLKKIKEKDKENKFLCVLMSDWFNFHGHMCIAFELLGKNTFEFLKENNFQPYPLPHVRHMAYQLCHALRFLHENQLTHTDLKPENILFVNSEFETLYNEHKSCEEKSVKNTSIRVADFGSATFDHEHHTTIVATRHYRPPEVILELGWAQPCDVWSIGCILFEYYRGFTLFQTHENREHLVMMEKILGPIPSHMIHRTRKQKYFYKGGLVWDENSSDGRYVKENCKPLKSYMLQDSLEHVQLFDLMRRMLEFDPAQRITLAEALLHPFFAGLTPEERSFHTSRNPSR
UniProt P50750, sequence (whole entry, looked up): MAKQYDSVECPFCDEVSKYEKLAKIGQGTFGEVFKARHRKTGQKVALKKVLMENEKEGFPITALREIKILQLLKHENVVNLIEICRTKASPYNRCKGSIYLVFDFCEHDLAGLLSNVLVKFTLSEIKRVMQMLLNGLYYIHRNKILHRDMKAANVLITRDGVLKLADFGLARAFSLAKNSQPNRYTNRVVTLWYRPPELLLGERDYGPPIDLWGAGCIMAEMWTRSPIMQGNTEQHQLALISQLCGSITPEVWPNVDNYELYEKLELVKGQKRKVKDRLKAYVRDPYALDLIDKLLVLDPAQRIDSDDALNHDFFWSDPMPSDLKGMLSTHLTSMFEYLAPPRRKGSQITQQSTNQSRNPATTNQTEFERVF
UniProt Q16832, sequence (whole entry, looked up): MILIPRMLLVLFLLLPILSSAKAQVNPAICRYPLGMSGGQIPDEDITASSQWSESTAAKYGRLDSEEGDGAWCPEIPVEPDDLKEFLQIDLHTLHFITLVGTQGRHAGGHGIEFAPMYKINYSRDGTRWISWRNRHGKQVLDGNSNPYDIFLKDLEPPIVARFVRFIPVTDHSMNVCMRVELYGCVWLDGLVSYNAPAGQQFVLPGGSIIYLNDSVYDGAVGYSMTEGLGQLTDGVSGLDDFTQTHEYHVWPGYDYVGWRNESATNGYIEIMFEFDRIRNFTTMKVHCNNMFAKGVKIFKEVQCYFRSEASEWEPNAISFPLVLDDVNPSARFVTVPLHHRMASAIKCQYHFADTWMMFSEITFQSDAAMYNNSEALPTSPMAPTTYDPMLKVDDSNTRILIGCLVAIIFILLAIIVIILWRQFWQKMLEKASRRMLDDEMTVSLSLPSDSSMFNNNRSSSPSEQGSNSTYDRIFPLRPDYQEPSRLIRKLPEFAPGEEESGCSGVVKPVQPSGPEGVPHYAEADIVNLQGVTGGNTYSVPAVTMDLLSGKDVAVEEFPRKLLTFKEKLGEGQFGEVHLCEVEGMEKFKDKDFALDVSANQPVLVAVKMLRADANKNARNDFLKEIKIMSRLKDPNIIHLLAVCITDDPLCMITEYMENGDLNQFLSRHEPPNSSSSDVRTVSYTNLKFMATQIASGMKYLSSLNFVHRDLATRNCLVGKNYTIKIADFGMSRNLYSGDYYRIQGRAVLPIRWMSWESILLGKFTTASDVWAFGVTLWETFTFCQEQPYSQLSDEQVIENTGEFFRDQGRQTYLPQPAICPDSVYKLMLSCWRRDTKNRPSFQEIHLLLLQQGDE
UniProt Q13237, sequence (whole entry, looked up): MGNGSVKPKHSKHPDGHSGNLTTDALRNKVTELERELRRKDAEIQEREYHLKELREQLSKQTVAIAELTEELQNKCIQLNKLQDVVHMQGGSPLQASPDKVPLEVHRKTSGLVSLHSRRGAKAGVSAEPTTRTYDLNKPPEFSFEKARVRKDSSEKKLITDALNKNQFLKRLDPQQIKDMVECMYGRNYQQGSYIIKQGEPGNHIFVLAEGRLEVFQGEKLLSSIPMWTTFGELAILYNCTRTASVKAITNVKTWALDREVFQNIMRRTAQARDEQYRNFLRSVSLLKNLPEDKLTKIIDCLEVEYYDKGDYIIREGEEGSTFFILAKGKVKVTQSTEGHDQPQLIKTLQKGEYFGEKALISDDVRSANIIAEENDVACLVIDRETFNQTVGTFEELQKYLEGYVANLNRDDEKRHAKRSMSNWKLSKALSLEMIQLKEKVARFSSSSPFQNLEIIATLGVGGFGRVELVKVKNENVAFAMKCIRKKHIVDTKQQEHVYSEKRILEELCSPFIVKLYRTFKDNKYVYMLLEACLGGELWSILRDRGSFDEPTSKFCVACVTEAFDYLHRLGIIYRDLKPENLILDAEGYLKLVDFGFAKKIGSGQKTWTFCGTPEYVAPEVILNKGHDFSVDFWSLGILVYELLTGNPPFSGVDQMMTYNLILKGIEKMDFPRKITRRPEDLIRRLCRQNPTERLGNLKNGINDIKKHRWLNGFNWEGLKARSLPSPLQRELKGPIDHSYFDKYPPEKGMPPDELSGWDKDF
UniProt Q8N568, sequence (whole entry, looked up): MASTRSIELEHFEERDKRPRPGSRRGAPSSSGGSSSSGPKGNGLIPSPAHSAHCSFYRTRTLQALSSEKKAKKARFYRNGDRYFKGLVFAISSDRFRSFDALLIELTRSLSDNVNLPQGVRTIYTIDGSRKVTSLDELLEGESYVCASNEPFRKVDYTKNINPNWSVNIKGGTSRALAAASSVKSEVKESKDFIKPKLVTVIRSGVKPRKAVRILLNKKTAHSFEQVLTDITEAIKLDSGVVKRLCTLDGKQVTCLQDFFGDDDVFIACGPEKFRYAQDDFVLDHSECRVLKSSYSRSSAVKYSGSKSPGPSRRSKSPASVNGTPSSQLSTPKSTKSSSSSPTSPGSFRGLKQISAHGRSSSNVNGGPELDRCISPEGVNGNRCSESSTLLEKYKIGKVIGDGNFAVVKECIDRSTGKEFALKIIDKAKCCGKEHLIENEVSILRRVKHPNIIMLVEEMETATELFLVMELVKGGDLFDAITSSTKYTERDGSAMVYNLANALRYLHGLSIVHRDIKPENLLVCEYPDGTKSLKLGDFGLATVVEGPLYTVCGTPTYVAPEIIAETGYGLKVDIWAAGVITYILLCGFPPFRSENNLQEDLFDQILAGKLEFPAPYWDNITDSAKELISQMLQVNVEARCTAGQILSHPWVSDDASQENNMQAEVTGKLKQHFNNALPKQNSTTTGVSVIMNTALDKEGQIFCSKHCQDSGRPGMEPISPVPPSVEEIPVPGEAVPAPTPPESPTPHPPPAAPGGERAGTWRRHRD

Sample 1
Target: RING finger protein unkempt homolog, zinc fingers 1-6, GST-SBP tag (UNK, Homo sapiens, UniProt Q9C0B0, residues 30-357)
UniProt Q9C0B0, sequence (30-357, looked up): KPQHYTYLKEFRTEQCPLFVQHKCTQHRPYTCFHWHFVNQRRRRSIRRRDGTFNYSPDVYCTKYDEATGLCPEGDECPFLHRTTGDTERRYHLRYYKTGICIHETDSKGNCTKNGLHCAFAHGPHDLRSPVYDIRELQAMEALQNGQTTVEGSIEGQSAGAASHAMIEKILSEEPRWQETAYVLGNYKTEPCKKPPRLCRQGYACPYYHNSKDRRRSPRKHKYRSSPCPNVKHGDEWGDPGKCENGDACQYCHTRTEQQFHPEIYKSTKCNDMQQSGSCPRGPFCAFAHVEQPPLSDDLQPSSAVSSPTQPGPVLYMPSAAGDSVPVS
Method: RNA Bind-n-Seq
Molecule type: RNA
Matrix: in vitro
Tested at: not given
Notes: RNA with constant flanks, ends assumed
Reference: input RNA pool
Direction: higher = stronger binding
Oligonucleotide | bound/input enrichment
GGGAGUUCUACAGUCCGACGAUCAGAACAGGUUUCUCUCUGUCCUUGACUCUUGGGUCUGUGGGCCAUGGCAUGAGUGUUUUCCCGCCGCCGAUUGGAGGGAAAGCUUUGUGACACUUAGUACUGUGUUUUUAAGAAGAAAUACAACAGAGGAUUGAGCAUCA | 1.09 ratio
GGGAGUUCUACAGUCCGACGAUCGGAAAAUAUGUGUAUGUAGUAACAGAACUUAUGAAAGGAGGUGAAUUGCUGGAUAAGAUUCUCCGACAGAAGUUUUUCUCAGAGCGAGAGGCCAGCGCUGUCCUGUUUACUAUAACCAAACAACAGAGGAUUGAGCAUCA | 0.422 ratio
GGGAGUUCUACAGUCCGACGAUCAUUGACAAGUGCAGACAGCAGCUUCAUGAUAUUACUGUACCGUUAGAAGUUUUUGAAUAUACCGAUCAAGGUCGAAAUCCCCAGCUCUACACCAAAGAGUGCCUGGAGAGGGCUCUAGCUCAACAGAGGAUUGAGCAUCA | 1.95 ratio
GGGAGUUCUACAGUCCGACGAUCCUCAAGCUACCAAAAAGGAAGUGGCAAUAGAUUGACUCAGGAUGUCAGAGCUCGGGAUUUCCGCAUUACUGCGUAAAGACUUUUGAAGGGACAGAAGUGAAGAAAUAAGCUGCAAUUUUGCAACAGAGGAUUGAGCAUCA | 0.175 ratio
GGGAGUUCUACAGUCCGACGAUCAGACGUGCGCCACCACCGCCCACCUUAAAUUCUUACAGAUAAAAACUGUAUAUGUUUAUAAACCGUUAUAAAGAACUAUUUUAUAUAAUAGCUAUUAUCAUUGUAGAAAUGACUUACAAACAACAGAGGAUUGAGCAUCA | 0.966 ratio
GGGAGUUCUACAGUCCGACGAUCAUUGUGGAGUAUCAGAACAAGGGCCGCGGGAACGAGUGCGUGCAGUACCAGCAUGUGUUACACCGAAAUCUCAUUUAUUUGGCUACCAUUGCAGAUGCCAGUCCAACCAGCACUUCAAAACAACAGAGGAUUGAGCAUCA | 0.204 ratio
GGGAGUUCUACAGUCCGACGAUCAUGGAGAUGUAUCAACCUAGUGCUGUGGUAUUACAGUGUGGUGCAGACUCAUUAUCUGGUGACCGACUGGGUUGUUUCAAUCUAACAGUCAAAGGUCAUGCUAAAUGUGUAGAAGUUGUACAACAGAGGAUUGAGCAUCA | 0.33 ratio
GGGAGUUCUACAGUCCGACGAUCCUCUAUGGGCCUCGCAGAGUUGAAAUAAUGGAAGAGGAAAGUGAACAGUAAUCUUCAUUUCCGUAUUUAUGCUUAGAUGUGAAAAUAAAUGUUAUUUGUUGAUCAUUUCUAUAAUCCAGACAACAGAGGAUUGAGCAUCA | 0.171 ratio

Sample 2
Target: CEP164, C-terminal peptide (human)
Method: DHFR complementation, deep sequencing
Matrix: yeast
Notes: single substitutions, model-inferred values
Reference: wild type
Direction: higher = weaker binding
Starting sequence: PDZK1, PDZ domain 2 (human); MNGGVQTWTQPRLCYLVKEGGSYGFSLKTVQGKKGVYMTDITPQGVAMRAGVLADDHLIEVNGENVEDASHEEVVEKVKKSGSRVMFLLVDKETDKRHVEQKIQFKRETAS; partner HNRVKVYRF
Change | binding free energy change [kcal/mol]
W8I | -0.137
N2D | -0.0488
D40H | 0.519
H57W | -0.0804
G51T | 1.43
E100P | -0.124
E100K | -0.0921
V17C | 0.0393

Sample 3
SMILES: O=C(N1CCS(=O)(=O)CC1)N1C[C@H](c2ccc(OC(F)(F)F)cc2)C[C@H](c2nc(C3CC3)no2)C1
Effect on: cell-free assay
Method: competition with immobilised ligand
Tested at: 1 µM
target | remaining binding
Wee1-like protein kinase (WEE1, Homo sapiens, UniProt P30291) | 100%
Myotonin-protein kinase (DMPK, Homo sapiens, UniProt Q09013) | 100%
cGMP-dependent protein kinase 2 (PRKG2, Homo sapiens, UniProt Q13237) | 100%
Serine/threonine-protein kinase 26 (STK26, Homo sapiens, UniProt Q9P289) | 94%

Sample 4
SMILES: C[C@@H]1CCN(C(=O)CC#N)C[C@@H]1N(C)c1ncnc2[nH]ccc12
Effect on: enzyme activity
Mode: inhibitor
Tested at: 0.5 µM
Reference: control
target | remaining activity [%]
Serine/threonine-protein kinase PAK 3 (PAK3, Homo sapiens, UniProt O75914) | 105
Dual specificity protein kinase CLK3 (CLK3, Homo sapiens, UniProt P49761) | 106
Dual specificity protein kinase CLK4 (CLK4, Homo sapiens, UniProt Q9HAZ1) | 111
G protein-coupled receptor kinase 4 (GRK4, Homo sapiens, UniProt P32298) | 93.5
Rho-associated protein kinase 1 (ROCK1, Homo sapiens, UniProt Q13464) | 90.1
Calcium/calmodulin-dependent protein kinase type IV (CAMK4, Homo sapiens, UniProt Q16566) | 96.3
Discoidin domain-containing receptor 2 (DDR2, Homo sapiens, UniProt Q16832) | 104
Dual specificity mitogen-activated protein kinase kinase 1 (MAP2K1, Homo sapiens, UniProt Q02750) | 112
Cyclin-dependent kinase 9, with cyclin K (CDK9, Homo sapiens, UniProt P50750) | 102
RAC-beta serine/threonine-protein kinase (AKT2, Homo sapiens, UniProt P31751) | 98
Serine/threonine-protein kinase DCLK2 (DCLK2, Homo sapiens, UniProt Q8N568) | 96.6

Excerpt of the above (sample 1):
Oligonucleotide | bound/input enrichment
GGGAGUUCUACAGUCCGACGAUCCUCAAGCUACCAAAAAGGAAGUGGCAAUAGAUUGACUCAGGAUGUCAGAGCUCGGGAUUUCCGCAUUACUGCGUAAAGACUUUUGAAGGGACAGAAGUGAAGAAAUAAGCUGCAAUUUUGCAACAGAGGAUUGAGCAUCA | 0.175 ratio
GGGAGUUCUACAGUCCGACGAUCAGACGUGCGCCACCACCGCCCACCUUAAAUUCUUACAGAUAAAAACUGUAUAUGUUUAUAAACCGUUAUAAAGAACUAUUUUAUAUAAUAGCUAUUAUCAUUGUAGAAAUGACUUACAAACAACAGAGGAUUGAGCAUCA | 0.966 ratio
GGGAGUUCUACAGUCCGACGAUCAUUGUGGAGUAUCAGAACAAGGGCCGCGGGAACGAGUGCGUGCAGUACCAGCAUGUGUUACACCGAAAUCUCAUUUAUUUGGCUACCAUUGCAGAUGCCAGUCCAACCAGCACUUCAAAACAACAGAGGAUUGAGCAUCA | 0.204 ratio
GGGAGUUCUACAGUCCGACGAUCAUGGAGAUGUAUCAACCUAGUGCUGUGGUAUUACAGUGUGGUGCAGACUCAUUAUCUGGUGACCGACUGGGUUGUUUCAAUCUAACAGUCAAAGGUCAUGCUAAAUGUGUAGAAGUUGUACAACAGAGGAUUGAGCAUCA | 0.33 ratio
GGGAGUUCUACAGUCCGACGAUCCUCUAUGGGCCUCGCAGAGUUGAAAUAAUGGAAGAGGAAAGUGAACAGUAAUCUUCAUUUCCGUAUUUAUGCUUAGAUGUGAAAAUAAAUGUUAUUUGUUGAUCAUUUCUAUAAUCCAGACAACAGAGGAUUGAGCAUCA | 0.171 ratio
